Results pooled from the literature.
± marks the error that the study gave.
DRD2: D(2) dopamine receptor (DRD2, Homo sapiens, UniProt P14416)
UniProt P14416, sequence (whole entry, looked up): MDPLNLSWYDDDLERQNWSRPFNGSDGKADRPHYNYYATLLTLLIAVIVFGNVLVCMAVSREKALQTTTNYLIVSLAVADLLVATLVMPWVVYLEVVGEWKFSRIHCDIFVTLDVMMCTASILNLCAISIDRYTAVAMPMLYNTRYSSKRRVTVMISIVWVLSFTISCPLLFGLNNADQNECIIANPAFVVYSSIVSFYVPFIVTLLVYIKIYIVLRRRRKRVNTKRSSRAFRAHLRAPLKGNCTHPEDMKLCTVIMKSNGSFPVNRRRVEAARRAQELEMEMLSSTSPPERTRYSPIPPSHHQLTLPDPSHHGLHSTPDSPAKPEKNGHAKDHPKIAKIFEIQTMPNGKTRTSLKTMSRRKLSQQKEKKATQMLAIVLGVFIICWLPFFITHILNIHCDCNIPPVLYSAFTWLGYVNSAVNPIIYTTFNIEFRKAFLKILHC
DRD2 long isoform: D(2) dopamine receptor, long isoform (DRD2, Homo sapiens, UniProt P14416)

Structure (SMILES)	target	assay	test system	setting	endpoint	value
CC(C)n1ccc2c(N3CCN(CCCCOc4ccc5c(c4)NC(=O)CC5)CC3)cccc21	DRD2	cell-free assay, radioligand	–	–	Ki	66.1 nM
CN1CCN(c2cn(C(=O)c3ccccc3)c3ccccc23)CC1	DRD2 long isoform	binding, radioligand displacement	HEK293 membranes	1 h, 37 °C, with: [3H]-raclopride	Ki	162 ± 9 nM
OC(CN1CCN(c2nsc3ccccc23)CC1)c1cccs1 (centres unmarked)	DRD2	ligand displacement, radioligand	–	–	Ki	430 nM
CN1CCN(c2ccc3cnn(S(=O)(=O)c4cccc5ccccc45)c3c2)CC1	DRD2 long isoform	binding, radioligand displacement	HEK293 membranes	1 h, 37 °C, with: [3H]-raclopride	Ki	973 ± 81 nM
CC(C)(CO)NCc1ccc(-c2cc(Cl)cc(Cl)c2)o1	DRD2	ligand displacement, radioligand	–	–	Ki	329 nM
Cc1ccc(NS(=O)(=O)c2c(C)[nH]c(C)c2C(=O)N2CCCCC2)cc1Cl	DRD2	–	–	–	IC50	> 100 µM
CCCn1ccc2c(N3CCN(CCCCOc4ccc5c(c4)NC(=O)CC5)CC3)cccc21	DRD2	ligand displacement, radioligand	–	–	Ki	60 nM
Cc1[nH]c(C)c(S(=O)(=O)NC2CCCCC2)c1C(=O)N1CCCC1	DRD2	–	–	–	IC50	> 100 µM
OCCNCc1ccc(-c2cc(Cl)cc(Cl)c2)o1	DRD2	ligand displacement, radioligand	–	–	Ki	543 nM
Cc1[nH]c(C)c(S(=O)(=O)Nc2ccccc2)c1C(=O)N1CCCC1	DRD2	–	–	–	IC50	> 100 µM
CC1Cc2ccccc2N1C(=O)CN1CCN(Cc2ccccc2)CC1 (centres unmarked)	DRD2	ligand displacement, radioligand	–	–	Ki	> 10000 nM
